Published values from different studies.
Numbered parts are unrelated; each lists some results of a single study.

Set 1
Target: Histone acetyltransferase KAT6A, winged helix 2, GST fusion (KAT6A, Homo sapiens, UniProt Q92794, residues 85-181)
Method: protein binding microarray
Form: double-stranded DNA, one strand shown
Medium: in vitro
Concentration: not given
Notes: 8-mer, flanks averaged, mean of 2 arrays, mostly near background
Reference: not given
Reading: higher = stronger binding
Measurement: E-score
Target sequence (chain): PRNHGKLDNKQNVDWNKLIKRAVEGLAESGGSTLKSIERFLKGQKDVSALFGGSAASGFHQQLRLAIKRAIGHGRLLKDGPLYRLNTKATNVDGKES
GACGCTGC: -0.0304
AACGGCTT: 0.0223
CACCTCCA: 0.0494
CGCGGAGC: 0.153
CTTAGTAA: 0.0877
GGAATCGA: -0.0371
CTTCGCAA: 0.00606
GTGATAAA: 0.148
CTCCCCTA: -0.0196
CCAGGAGA: 0.0291
AGGAGAGA: -0.137
AGTCATAA: -0.187
TACACCCA: 0.0389
AGGGGAAG: -0.0279
AGAACTGC: -0.0143
CTCTCCAG: 0.0913
GGCCATAC: -0.0131
AGGGCGTG: 0.0149
CTAGGAGA: -0.0678
ACGCGTGC: -0.0308
CAGGACTC: -0.102
ACATAAGT: 0.0727
CGCTGGCA: 0.205
ACTTGCTA: -0.0589
CTATCCGA: -0.207

Set 2
Target: Max dimerization protein 1, bHLH-zipper, MAX partner unstated (MXD1, Homo sapiens, UniProt Q05195, residues 56-136)
Method: protein-binding microarray
Form: double-stranded DNA, one strand shown
Medium: in vitro
Concentration: not given
Notes: k-mer, scored over probes, only values ≥0.25
Reading: higher = stronger binding
Measurement: E-score
Residues (chain): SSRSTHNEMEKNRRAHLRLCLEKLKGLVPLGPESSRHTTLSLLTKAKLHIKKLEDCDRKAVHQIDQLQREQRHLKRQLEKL
CACGAGTC: 0.381
CACGCCCA: 0.31
CCCCGCGC: 0.273
ACACGCTA: 0.324
GCATGCAA: 0.344
ACATGCGT: 0.431
AACGTGCC: 0.411
ATGTGATA: 0.285
CGTGTACA: 0.268
CACGAGGG: 0.445
ACTACACG: 0.283
ACGTGATA: 0.389
CACGCTTA: 0.377
AGGGGGGG: 0.25
ACGGCGTG: 0.376
CGAACACG: 0.288
ACTCGTGG: 0.421
AACACGTG: 0.491
CGTTCTCC: 0.284
CGCATGTC: 0.444
CCACCCAC: 0.292
CAAGCGTG: 0.396
ACACCTGT: 0.296
ACGTGAGT: 0.298
ACATGCTA: 0.372

Set 3
Target: Prothrombin, mature alpha-thrombin (F2, Homo sapiens, UniProt P00734)
Method: aptamer microarray, sandwich
Form: DNA with 2'F-ANA
Medium: in vitro
Concentration: 200 nM
Notes: whole 15-mer aptamer, many near background
With: Cy3 exosite-II aptamer, 400 nM
Reading: higher = stronger binding
Measurement: mean fluorescence intensity
Strand: GGTTGGTGTGGTTGG
2'F-ANA at 1 2 3 4 5 6 8 9 11 13 14: 50.3 a.u.
2'F-ANA at 1 2 3 7 8 9 11 12 13 14 15: 88.7 a.u.
2'F-ANA at 2 4 5 6 7 9 12 13 14 15: 49 a.u.
2'F-ANA at 3 13 14 15: 642 a.u.
2'F-ANA at 1 4 5 7 8 9 11 12 14: 44.8 a.u.
2'F-ANA at 1 3 6 7 8 9 10 12 15: 115 a.u.
2'F-ANA at 1 3 6 8 10 11 13 14 15: 62.2 a.u.
2'F-ANA at 2 3 7 8 11: 1130 a.u.
2'F-ANA at 1 2 8 9 10 11 15: 55.1 a.u.
2'F-ANA at 1 2 4 7 9 11 12 14 15: 61.3 a.u.
2'F-ANA at 3 4 5 9 10: 52.8 a.u.
2'F-ANA at 1 2 5 6 7 8 14: 55.2 a.u.
2'F-ANA at 2 5 7 9 10 11 13 14: 112 a.u.
2'F-ANA at 2 3 5 8 9 10 11 13 15: 53.5 a.u.
2'F-ANA at 1 3 5 6 9 12 13 15: 93 a.u.
2'F-ANA at 1 2 4 6 9 10 15: 49.5 a.u.
2'F-ANA at 1 3 4 6 8 9 12 13 14: 67.3 a.u.
2'F-ANA at 4 6 9 10 11 15: 74.2 a.u.
2'F-ANA at 1 2 3 4 8 12 13 14 15: 81.1 a.u.
2'F-ANA at 1 2 4 8 9 10 11 13 14 15: 56.7 a.u.
2'F-ANA at 1 2 3 5 6 7 8 10 11 12 14 15: 50.7 a.u.
2'F-ANA at 1 4 5 7 9 11 13 14 15: 47.2 a.u.
2'F-ANA at 1 4 6 7 9 10 13 14: 52.7 a.u.
2'F-ANA at 7 9 10 12 13 15: 198 a.u.
2'F-ANA at 3 4 5 8 9 10 11 12 15: 58.2 a.u.

Set 4
Target: Fragile X messenger ribonucleoprotein 1, C-terminal low-complexity region (Fmr1, Mus musculus, UniProt P35922)
Method: RNA Bind-n-Seq
Form: RNA
Medium: in vitro
Concentration: 200 nM
Notes: whole 134-nt RNA, ends assumed
With: 150 mM LiCl
Reference: input library
Reading: higher = stronger binding
Measurement: log2 enrichment
Each molecule: 7-deaza-guanosine replaces G
All sequences stand within: GGGAGUUCUACAGUCCGACGAUC … UGGAAUUCUCGGGUGUCAAGG
CCUGUGCUACACAUCGUAUGUACCGAAUCGGGUUUUUUGGGGUUUUUUGGUUUUUUGGGGAAAGUAUUAUGUUACGCCGUUCGGAUCUGC: -1.02
CUCAAGUCCUGUGCUACACAUCGUAUGUACCGAAUCGGUUUGGUUUUUGGAGGAAAGUAUUAUGUUACGCCGUUCGGAUCUGCACUUCCA: -0.119
UGGGAGGUGGAUUUUGUUUAUUUUUUUAGCUCAUUUCCAGGGGUGGGAAGUUUUUUUUAAUAUGUGUCAUGAAUAAAGUUGUUUUUGAAA: 0.594
AAGUCCUGUGCUACACAUCGUAUGUACCGAAUCGGGAGGGUUUUUGGGUUUUUGGGAAAGUAUUAUGUUACGCCGUUCGGAUCUGCACUU: -1.5
UGGCCCUGGUGGCAUGCGGGGAGGAAGAGGUGGCCUCAUGGAUCGUGGUGGUCCCGUUGGAAUGUUCAGAGGUGGCCGUGGUGGAGACAG: -0.017
CCUGUGCUACACAUCGUAUGUACCGAAUCGGGGUUUUUUGGGUUUUUUGGUUUUUUGGGGAAAGUAUUAUGUUACGCCGUUCGGAUCUGC: -1.16
UUCCUUUCCGUUGUGUGUUUUAAAGGUGUGUGCCCUCUUCCUGAUUCUGGAGAAAAAUGCCGGUCCGGAAGCAAGGUGAGAGUUUAUUCC: 1.52
GCAGGAAGUAAAAACAAAUGGAAAUGCUUCGGAUAGUGGCAGGGGUGGGGGUUGCUAAGGAAAAAAUGGGAUGGGAGUGGGUAAAGAGUU: 1.57
GAGUCCGGUUCGUGUUCGUCCGCGGAGAUCUCUCUCAUCUCGCUCGGCUGCGGGAAAUCGGGCUGAAGCGACUGAGUCCGCGAUGGAGGU: -2.07
UAACUUUAGAGGAGGAUGUGAUGGAUAUGGCAGUGGACGUGGAUUUGGGGAUGGCUAUAAUGGGUAUGGAGGAGGACCUGGAGGUGGCAA: 0.802
UCCUGUGCUACACAUCGUAUGUACCGAAUCGGGAAAAAAGGGAAAAAAGGAAAAAAGGGAAAGUAUUAUGUUACGCCGUUCGGAUCUGCA: 0.152

Set 5
Target: RNA binding protein fox-1 homolog 2, RRM domain, GST-SBP tag (RBFOX2, Homo sapiens, UniProt O43251-10, residues 100-194)
Method: RNA Bind-n-Seq
Form: RNA
Medium: in vitro
Concentration: 365 nM
Notes: natural RNA segment, single round, ends assumed
Reference: no-protein control
Reading: higher = stronger binding
Measurement: RBNS enrichment (R)
All sequences stand within: GGGAGUUCUACAGUCCGACGAUC … UGGAAUUCUCGGGUGCCAA
Target sequence (chain): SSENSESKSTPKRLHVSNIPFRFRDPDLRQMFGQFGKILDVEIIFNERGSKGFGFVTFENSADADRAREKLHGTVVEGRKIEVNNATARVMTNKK
AGUCAGCGCAGUUUAGCAGUUAAAAGUGUAUUUUUGUUUAAUCAAACAAUAAUAAAGAGAGAUUUGUGGAAAAAUCCAGUUACGGGUGGAGGGGAAUCGGUUCAUCAAUU: 0.62
AGUUGUGGGUUUGUAGGUGCGAGUUUGAAGAGGAAAAGAGGAAGGGGGUUAUAUUUCUAAGUGAUUUACAAUUUCUGUUUCUAAAAUUGUUGGGAUUUAGAAAUGUUUCA: 0.944
CAGGACGCCGACCCUGCCUGGACGGCCCCGCCUGGACCGCCUGACCUCGGCCCUCCGGACCCGGCUGCGGCCCCCGCCUCCGAGACCAAAUAGAGACGCUGCUUCUCCCU: 0.157
AGCCUUGCCGUGUGCUGCUUCUCAUCACUGCACACAAGUGCCAUGCUUUGCCACCACCACCAAGCACAUCUGUGAUCCUGAAGGGCGGCCGUUAGUCAUUACUGCUGAGU: 0.463
CUCUCCGCUUGUGACAAAGUCAUUGUUGCCAUCAGGAUUUCAAGUAAUGGGCGUAUCUCAGGGCUAACUAUUGUUUGAAUUAGGCACCAAUAUAUUUUAAAUCAUUUUAU: 0.639
GGUCCUCUCUUCUCUUCCCCGGGGAGAGAAUAAGGGCUCACUAAGCAGAGGAACCCACUUAGAGGAAGGAAAAGCACAAACUCCCUAAGGAAUGUAUCACAGACCGUCAC: 0.552
CCUAACGCUGCAUCAACGGGAGGGAGGGUCCUGAAAGAGACCCAUCUGGGCCUGUCUGAACCCCUCGUUCUUCAUGUUUAGGUGAAUAUGAAUAUGUUAAAGCUGGUGGC: 0.651
UCUCUCCUUCCCUCCCACCACCACCAGGACCCCCGGGGCUGUAGCCUCCUCUCUGAUCAGAGCCGACACCAGACGUGAUUAGCAGGCGCAGCAAAUUCAAUUUGUUAAAU: 0.731
UUUGCAGGCUUUUCUGAAUACCAAAUCUGCUUUUUGUAAAGCGUAAAAACAUCACAAAGUAGGUCAUUCCAUCACCACCCUUGUCUCUCUACACAUUUUGCCUUUGGGGA: 0.501
CUCUGAGAGGAAGUGUGGAGAGUCUCCAUCCAACUCUGCUCCUACUGAGUAAAGUCCCCUUCCCUCCAGAGUGUCACAGAGACACUAGAAUGUCAGGUGCUCUUGUCUGA: 0.837
AUUUAUUGUAAGUUUUUAAAUGUAUAAAUUGUCUUAUAUUUCUUAACCUCUUUUAUAAAAAUUUUCCUAGAAGGUUUAUACUGCCUUCUUGCUUUAAAGCAAUUGGUCUA: 0.756
CUCCAGCGGCAGGGCAUGGUUCUUGGCAGCCUGGUGUCCACACGGUGCAUUCCUGUCCCCCUCGGCCCCAGGCUGGCUCAGCUCUCCAGUGCUGCGGCGCUGUCUUUGCA: 1.18

A few entries again (set 2):
ACTACACG: 0.283
CCACCCAC: 0.292
CGTGTACA: 0.268
AACACGTG: 0.491
ACTCGTGG: 0.421
CCCCGCGC: 0.273
ACACGCTA: 0.324
CACGAGTC: 0.381
ACGTGAGT: 0.298
